Experimental data gathered from unrelated publications.
± gives the spread as reported.
B1: susB (Bacteroides thetaiotaomicron, UniProt G8JZS4); chain QQKLTSPDNNLVMTFQVDSKGAPTYELTYKNKVVIKPSTLGLELKKEDNTRTDFDWVDRRDLTKLDSKTNLYDGFEVKDTQTATFDETWQPVWGEEKEIRNHYNELAVTLYQPMNDRSIVIRFRLFNDGLGFRYEFPQQKSLNYFVIKEEHSQFGMNGDHIAFWIPGDYDTQEYDYTISRLSEIRGLMKEAITPNSSQTPFSQTGVQTALMMKTDDGLYINLHEAALVDYSCMHLNLDDKNMVFESWLTPDAKGDKGYMQTPCNTPWRTIIVSDDARNILASRITLNLNEPCKIADAASWVKPVKYIGVWWDMITGKGSWAYTDELTSVKLGETDYSKTKPNGKHSANTANVKRYIDFAAAHGFDAVLVEGWNEGWEDWFGNSKDYVFDFVTPYPDFDVKEIHRYAARKGIKMMMHHETSASVRNYERHMDKAYQFMADNGYNSVKSGYVGNIIPRGEHHYGQWMNNHYLYAVKKAADYKIMVNAHEATRPTGICRTYPNLIGNESARGTEYESFGGNKVYHTTILPFTRLVGGPMDYTPGIFETHCNKMNPANNSQVRSTIARQLALYVTMYSPLQMAADIPENYERFMDAFQFIKDVALDWDETNYLEAEPGEYITIARKAKDTDDWYVGCTAGENGHTSKLVFDFLTPGKQYIATVYADAKDADWKENPQAYTIKKGILTNKSKLNLHAANGGGYAISIKEVKDKSEAKGLKRL
B2: protein (Bacteroides thetaiotaomicron, UniProt Q8A711); chain MKNTYIIGEIGQNHNGSVDLAKLIIELISRPVHEDVFGMDFMPMNAVKMTKRDLSEELAVSQMNQIYDNPNSFGRTYGEHRAFLELDDQAHFEIYKYAKSLGLDFIETLCAKGCLSLLKLFTPDRLKVASRDLTNLPLLEALAETHIPIILSTGMAGQRELDNALDVITRYHSNIAILHCVSQYPTHPNNLNLRTITYLKKHYNKFEIGFSDHTIGISAATAAVAMGAEIIEKHVTIDRHMKGTDQLGSLGPDGVNRMIRDIRIAECWLGTEDLYIEKGVEKSKIKLERSIATRKYIPAGSIIQESDIHLLSPGDGYKWIDKKNVIGHFAKQDISANEIIYPDFIE
UniProt P11388, sequence (whole entry, looked up): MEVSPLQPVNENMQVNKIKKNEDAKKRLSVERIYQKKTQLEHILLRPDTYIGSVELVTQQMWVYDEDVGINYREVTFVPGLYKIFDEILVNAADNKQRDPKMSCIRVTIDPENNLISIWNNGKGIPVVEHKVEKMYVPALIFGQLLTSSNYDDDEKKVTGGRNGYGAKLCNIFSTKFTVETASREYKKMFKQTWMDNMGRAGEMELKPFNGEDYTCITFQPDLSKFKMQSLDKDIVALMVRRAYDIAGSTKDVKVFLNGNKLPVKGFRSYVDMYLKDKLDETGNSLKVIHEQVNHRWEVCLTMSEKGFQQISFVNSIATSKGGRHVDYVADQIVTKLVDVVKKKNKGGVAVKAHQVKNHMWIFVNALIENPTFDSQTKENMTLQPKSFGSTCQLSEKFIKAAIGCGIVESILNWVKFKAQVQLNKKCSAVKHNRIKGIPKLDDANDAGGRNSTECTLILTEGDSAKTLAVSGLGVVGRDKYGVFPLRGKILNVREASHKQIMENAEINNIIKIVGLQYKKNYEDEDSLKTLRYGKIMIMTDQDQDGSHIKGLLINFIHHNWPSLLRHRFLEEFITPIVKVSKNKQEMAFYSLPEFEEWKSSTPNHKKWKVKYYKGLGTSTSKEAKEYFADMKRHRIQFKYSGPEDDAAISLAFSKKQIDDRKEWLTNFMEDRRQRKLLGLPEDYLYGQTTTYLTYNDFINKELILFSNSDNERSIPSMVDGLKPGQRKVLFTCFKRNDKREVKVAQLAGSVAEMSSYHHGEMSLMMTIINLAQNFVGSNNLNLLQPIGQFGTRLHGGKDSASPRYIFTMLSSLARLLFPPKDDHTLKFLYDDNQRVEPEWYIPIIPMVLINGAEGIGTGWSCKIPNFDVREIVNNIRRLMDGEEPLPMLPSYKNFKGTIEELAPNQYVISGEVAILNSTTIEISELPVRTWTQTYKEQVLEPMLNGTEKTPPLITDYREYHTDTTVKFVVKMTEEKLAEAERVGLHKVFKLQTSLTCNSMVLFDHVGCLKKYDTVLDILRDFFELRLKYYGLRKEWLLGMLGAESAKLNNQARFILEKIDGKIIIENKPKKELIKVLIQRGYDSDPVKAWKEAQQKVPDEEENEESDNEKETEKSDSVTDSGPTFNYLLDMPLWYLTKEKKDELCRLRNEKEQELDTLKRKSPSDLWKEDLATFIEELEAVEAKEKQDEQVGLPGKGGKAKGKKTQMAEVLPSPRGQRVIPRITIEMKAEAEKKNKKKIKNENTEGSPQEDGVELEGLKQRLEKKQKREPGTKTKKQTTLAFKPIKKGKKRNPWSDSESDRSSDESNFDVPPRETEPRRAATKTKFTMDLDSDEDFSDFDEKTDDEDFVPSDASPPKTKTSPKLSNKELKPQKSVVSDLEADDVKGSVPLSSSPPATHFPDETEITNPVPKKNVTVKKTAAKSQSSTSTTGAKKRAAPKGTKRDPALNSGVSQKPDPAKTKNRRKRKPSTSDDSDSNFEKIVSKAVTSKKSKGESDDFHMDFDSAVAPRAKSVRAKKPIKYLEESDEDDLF
UniProt Q8A1G0, sequence (whole entry, unmodified, looked up): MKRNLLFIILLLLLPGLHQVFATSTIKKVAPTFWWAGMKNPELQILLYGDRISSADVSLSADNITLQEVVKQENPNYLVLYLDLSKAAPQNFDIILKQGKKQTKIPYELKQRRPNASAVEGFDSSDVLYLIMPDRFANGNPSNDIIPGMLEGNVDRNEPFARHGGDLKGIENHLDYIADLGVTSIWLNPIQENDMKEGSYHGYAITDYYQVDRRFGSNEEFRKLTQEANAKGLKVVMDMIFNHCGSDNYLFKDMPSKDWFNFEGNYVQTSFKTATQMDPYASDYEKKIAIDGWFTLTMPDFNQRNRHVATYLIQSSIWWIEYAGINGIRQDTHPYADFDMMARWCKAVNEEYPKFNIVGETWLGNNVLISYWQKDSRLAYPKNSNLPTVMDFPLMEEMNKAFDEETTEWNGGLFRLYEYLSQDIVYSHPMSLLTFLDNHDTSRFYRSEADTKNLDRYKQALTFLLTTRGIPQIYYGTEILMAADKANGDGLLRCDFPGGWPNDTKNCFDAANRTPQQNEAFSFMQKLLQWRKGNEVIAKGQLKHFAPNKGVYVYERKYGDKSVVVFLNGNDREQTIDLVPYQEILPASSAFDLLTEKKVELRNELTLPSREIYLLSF

Fc1ccccc1Cc1nc(-c2nc(C(F)(F)F)n[nH]2)cn2ccnc12  subjects with general administration-site TEAEs (healthy human subjects, both sexes; oral, 10 mg, fed): 7.7%
COC(=O)Nc1c(N)nc(-c2nn(Cc3ccccc3F)c3ncc(F)cc23)nc1N  AUC (human, plasma; 5 mg, geometric mean, together with: magnesium/aluminum hydroxide): 1820 ng·h/mL
N#CCC1CCN(c2nc(Nc3ccc(N4CCC(O)CC4)cc3)c3c(=O)[nH]ncc3n2)CC1  IL-18 level difference (vs placebo, Olink multiplex; human, serum; 80 mg, day 15, unit not given; reference: placebo): -1.42
B1 (susB)  Km (O=[N+]([O-])c1ccc(O[C@H]2O[C@H](CO)[C@@H](O)[C@H](O)[C@H]2O)cc1; steady-state kinetics; pH 6.6): 89 µM
B2 (protein)  Km (C=C(OP(=O)(O)O)C(=O)O; steady-state kinetics; pH 7.5, 25 °C, together with: mannose 6-phosphate 3 mM): 110 µM
susA (Bacteroides thetaiotaomicron, UniProt Q8A1G0)  kcat (O=[N+]([O-])c1ccc(O[C@H]2O[C@H](CO)[C@@H](O[C@H]3O[C@H](CO)[C@@H](O[C@H]4O[C@H](CO)[C@@H](O[C@H]5O[C@H](CO)[C@@H](O[C@H]6O[C@H](CO)[C@@H](O[C@H]7O[C@H](CO)[C@@H](O)[C@H](O)[C@H]7O)[C@H](O)[C@H]6O)[C@H](O)[C@H]5O)[C@H](O)[C@H]4O)[C@H](O)[C@H]3O)[C@H](O)[C@H]2O)cc1; steady-state kinetics; pH 7): 13.8 ± 0.3 s⁻¹
COc1cc([C@@H]2c3cc4c(cc3[C@@H](O[C@@H]3O[C@@H]5CO[C@@H](C)O[C@H]5[C@H](O)[C@H]3O)[C@H]3COC(=O)[C@H]23)OCO4)cc(OC)c1O  linear DNA (TOP2A (Homo sapiens, UniProt P11388); DNA cleavage; 31.25 µM, replicate 1): 15.6%

A few entries again:
B1 (susB)  Km (O=[N+]([O-])c1ccc(O[C@H]2O[C@H](CO)[C@@H](O)[C@H](O)[C@H]2O)cc1; steady-state kinetics; pH 6.6): 89 µM
